{"data": "Measurements gathered from unrelated publications", "note": "Each line is one published result; not all experiments were run side by side. ± gives the spread as reported."}
{"SMILES": "ON=Cc1c(-c2ccccc2)[nH]c2ccccc12", "target or system": "HEK293", "test": "cell growth or viability", "conditions": "50 µM", "quantity": "viability", "value": "106%"}
{"SMILES": "CCOC(=O)c1nc2ccccc2c(=O)n1Cc1cn(-c2ccc(OC)cc2)nn1", "target or system": "Candida tropicalis", "test": "microbial growth, broth dilution", "system": "ATCC750", "conditions": "24 h", "quantity": "IC50", "value": "442 µg/mL"}
{"SMILES": "c1ccc(Cn2c(-c3ccccc3)cc3ccccc32)cc1", "target or system": "HEK293 NF-κB luciferase reporter", "test": "reporter gene, measured: NF-κB", "conditions": "50 µM, 6 h, added: TNFα", "quantity": "inhibition", "value": "0%"}
{"SMILES": "CC[C@H]1OC(=O)[C@H](C)[C@@H](O[C@H]2C[C@@](C)(OC)[C@@H](O)[C@H](C)O2)[C@H](C)[C@@H](O[C@@H]2O[C@H](C)C[C@H](N(C)C)[C@H]2O)[C@](C)(O)C[C@@H](C)C(=O)[C@H](C)[C@@H](O)[C@]1(C)O", "target or system": "Enterococcus", "system": "community-acquired pneumonia patients", "conditions": "Fine score below 70", "quantity": "sensitive strains", "value": "0%"}
{"SMILES": "C[C@H](C(=O)Oc1ccc(-c2cc(=S)ss2)cc1)c1ccc2cc(OC(=O)CCCO[N+](=O)[O-])ccc2c1", "target or system": "IMR-90 and cancer cell lines", "test": "cell growth", "conditions": "24 h", "how to read": "reference: IMR-90 over cancer cells", "quantity": "IC50 ratio", "value": "70 to 270 fold"}
{"SMILES": "C[C@H]1C[C@H]2CSC(N)=N[C@@]2(c2nc(NC(=O)c3ccc(OC(F)F)cn3)cs2)CO1", "test": "measured: CSF Aβx-42", "system": "healthy adults", "conditions": "275 mg once daily, 14 days, day 15", "how to read": "reference: placebo-adjusted baseline", "quantity": "change from baseline", "value": "-85%"}
{"SMILES": "CC1(C)S[C@@H]2[C@H](NC(=O)[C@H](N)c3ccc(O)cc3)C(=O)N2[C@H]1C(=O)O", "target or system": "Enterococcus", "system": "community-acquired pneumonia patients", "conditions": "Fine score below 70", "quantity": "sensitive strains", "value": "100%"}
{"SMILES": "Cc1ccc(NC(=O)c2ccc(CN3CCN(C)CC3)cc2)cc1Nc1nccc(-c2cncc(-c3oncc3C)c2)n1", "system": "mild-to-moderate Parkinson's disease patients", "conditions": "oral, 50 mg once daily, pre-dose baseline, on anti-Parkinson medication", "how to read": "direction not given", "quantity": "NMSS score", "value": "36.5 ± 23.5"}
{"SMILES": "CC[C@H]1OC(=O)[C@H](C)[C@@H](O[C@H]2C[C@@](C)(OC)[C@@H](O)[C@H](C)O2)[C@H](C)[C@@H](O[C@@H]2O[C@H](C)C[C@H](N(C)C)[C@H]2O)[C@](C)(O)C[C@@H](C)CN(C)[C@H](C)[C@@H](O)[C@]1(C)O", "target or system": "Enterococcus", "system": "community-acquired pneumonia patients", "conditions": "Fine score 70 or more", "quantity": "sensitive strains", "value": "0%"}
{"SMILES": "Cc1ccc2cc(-c3ccccc3)[nH]c2c1", "target or system": "HEK293 NF-κB luciferase reporter", "test": "reporter gene, measured: NF-κB", "conditions": "50 µM, 6 h, added: TNFα", "quantity": "inhibition", "value": "97.3 ± 1.7%"}
{"note": "Repeated from above:"}
{"SMILES": "CC[C@H]1OC(=O)[C@H](C)[C@@H](O[C@H]2C[C@@](C)(OC)[C@@H](O)[C@H](C)O2)[C@H](C)[C@@H](O[C@@H]2O[C@H](C)C[C@H](N(C)C)[C@H]2O)[C@](C)(O)C[C@@H](C)CN(C)[C@H](C)[C@@H](O)[C@]1(C)O", "target or system": "Enterococcus", "system": "community-acquired pneumonia patients", "conditions": "Fine score 70 or more", "quantity": "sensitive strains", "value": "0%"}
